Experimental data gathered from unrelated publications.
Every numbered part comes from another study and shows a few of its results, in no order. Changes are numbered by the printed parent chain.

Study 1
Target: Sal-like protein 4, full length isoform B (SALL4, Homo sapiens, UniProt Q9UJQ4-2, residues 1-616)
Technique: universal PBM
Form: double-stranded DNA, one strand shown
Matrix: in vitro
Concentration: not given
Notes: 8-mer, flanks averaged, mean of replicates
Reading: higher = stronger binding
Sequence	E-score
GGTAGCAA	0.0885
CAGGGCTA	-0.193
CTATCTGC	-0.199
GCTCTGGA	-0.0442
GAATTTGC	0.164
ACCGAACC	-0.18
ATCATAGG	0.152
GTGCACGA	-0.102
CTTATTGC	0.0897
ACCGAGGG	-0.362
AGAAAGCA	0.0472
CCCTCCGC	-0.311
AGTTCATA	0.275
AAGACCAG	-0.192
ACAGACGC	-0.106
AGCGCTCG	-0.284
CAACAAGG	0.0475
ATTGAGTA	0.263
AATCGTCG	-0.0878
GCATTAGA	0.186
ACATACTC	0.21
CCTCCCGA	-0.251
AGCCCTTG	-0.203
CTCGTAGC	-0.0949
ATTCACCG	-0.0139

Study 2
Target: Interferon regulatory factor 5, full length, phosphomimetic (IRF5, Homo sapiens, UniProt Q13568-2, residues 1-514, S451D/S453D/S456D/S462D)
Technique: protein-binding microarray
Form: double-stranded DNA, one strand shown
Matrix: in vitro
Concentration: 940 nM top
Notes: 60-bp whole probe
Together with: salmon DNA 0.4 mg/ml
Reference: random background probes
Reading: higher = stronger binding
Constant ends, left off below: GCCTAGCAC … GTCTTGATTCGCTTGACGCTGCTG
Sequence	fitted relative affinity [z-score]
GTAGGTTTCGGACTGGGTTAGTGCTAG	6.41
GACGGACTGGCGACTGGGGACGTGCTA	-0.503
TGAGGTTTCCTTTCCCTTTAGTGCTAG	1.53
TTAGGTCTCGGGACTGGGTTAGTGCTA	1.54
TTAGATTTCGGGTTTCTATTAGTGCTA	2.56
TTAGGTATCGGTCTCGTTTAGTGCTAG	9.78
GGACGGCAGTGCACACAGTGGTGCTAG	-0.532
AACTTTTTTTAATTGAGAAGGTGCTAG	0.139
TTAGGACTGGGTATCGCTTAGTGCTAG	0.975
GACGGACTGGGATATCGGGACGTGCTA	-0.285
TCATATATTTTAATCACACTGTGCTAG	0.648
TCATCTCTGGTTCTTGCACTGTGCTAG	1.09
TCATCTGTCATTTTCTCACTGTGCTAG	1.71
TCAACTTTTTTTTTTCCACTGTGCTAG	1.14
TTAGAACTGAGTCTCGATTGGTGCTAG	2.46
TTAGATATCGGGACGGGATTAGTGCTA	0.386
GACGGTTTCCTCCTCCTGACGTGCTAG	0.862
TAAGGTTTCGACACTGGGTTAGTGCTA	5.58
TTAGGTTTCGACGTTCGGTTAGTGCTA	8.54
CTGTCTGAGGACACCCTGGCGTGCTAG	-0.119

Study 3
Target: UBE2S UBC core domain (UniProt Q16763)
Chain of UniProt Q16763 (whole entry, looked up): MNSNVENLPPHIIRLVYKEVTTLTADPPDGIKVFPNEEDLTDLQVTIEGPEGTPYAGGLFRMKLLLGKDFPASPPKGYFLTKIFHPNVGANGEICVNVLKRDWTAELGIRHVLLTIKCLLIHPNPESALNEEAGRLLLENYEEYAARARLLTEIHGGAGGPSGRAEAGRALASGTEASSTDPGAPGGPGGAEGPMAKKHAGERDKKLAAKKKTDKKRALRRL
Technique: yeast two-hybrid
Matrix: yeast
Notes: mostly zero background
Reference: not given
Reading: higher = stronger interaction
B1: RNF19A RING domain (UniProt Q9NV58); chain ISKQIGDFIECPLCLLRHSKDRFPDIMTCHHRSCVDCLRQYLRIEISESRVNISCPECTERFNPHDIR
B2: DTX2 RING domain (UniProt Q86UW9); chain EELKVPPDEDCIICMEKLSTASGYSDVTDSKAIGSLAVGHLTKCSHAFHLLCLLAMYCNGNKDGSLQCPSCKTIYGEKTGTQ
B3: SH3RF1 RING domain (UniProt Q7Z6J0); chain DESALLDLLECPVCLERLDASAKVLPCQHTFCKRCLLGIVGSRNELRCPECRTLVGSGVEEL
B4: TRIM62 RING domain (UniProt Q9BVG3); chain MACSLKDELLCSICLSIYQDPVSLGCEHYFCRRCITEHWVRQEAQGARDCPECRRTFAEPALAP
B5: ZMIZ2 RING domain (UniProt Q8NF64); chain GTIPGTPGPNGEDGVEQTAIKVSLKCPITFRRIQLPARGHDCRHIQCFDLESYLQLNCERGTWRCPVCNKTALLEGLEVDQYMLGILIYIQNSDYEEITIDPTCSWK
B6: RNF133 RING domain (UniProt Q8WVZ7); chain DEEINPNGDSCVICFERYKPNDIVRILTCKHFFHKNCIDPWILPHGTCPICKCDILKVLGIQ
B7: UBOX5 RING domain (UniProt O94941); chain EQPGSILGPECASCKRVFSPYFKKEPVYQLPCGHLLCRPCLGEKQRSLPMTCTACQRPVASQDVLR
B8: RNF121 RING domain (UniProt Q9H920); chain MPTKHLSDSVCAVCGQQIFVDVSEEGIIENTYRLSCNHVFHEFCIRGWCIVGKKQTCPYCKEKVDLKRMFS
Sequence	lacZ reporter activity
B1 (RNF19A RING domain)	0
KLRKLKEAMLCMVCCEEEINSTFCPCGHTVCCESCAAQLQSCPVCRSRVEHVQHVY (MYLIP RING domain (UniProt Q8WY64))	0
B2 (DTX2 RING domain)	0
B3 (SH3RF1 RING domain)	0
B4 (TRIM62 RING domain)	0
B5 (ZMIZ2 RING domain)	0
B6 (RNF133 RING domain)	0
AMYLQENGIDCPKCKFSYALARGGCMHFHCTQCRHQFCSGCYNAFYAKNKC (RNF31 RING domain (UniProt Q96EP0))	0
B7 (UBOX5 RING domain)	0
AVPSGLEENLCKICMDSPIDCVLLECGHMVTCTKCGKRMNECPICRQYVIRAVHVF (RFFL RING domain (UniProt Q8WZ73))	0
YQNEVDDDLVCHICLQPLLQPLDTPCGHTFCYKCLRNFLQEKDFCPLDRKRLHFKLCKK (LNX2 RING domain (UniProt Q8N448))	0
B8 (RNF121 RING domain)	0

Study 4
Target: CCNA2, cyclin fold, Cln2 fusion (human)
Technique: yeast growth competition, sequencing
Matrix: yeast
Notes: weak parent motif
Reference: not given
Reading: higher = stronger binding
Parent: DNAH7 docking peptide (human); HELFQRLDFDNDG
Change	normalised enrichment score
D10A	-0.0717
H1A	0.065
R6A	-0.204
L3A	0.322
D8A	-0.0826
E2A	0.682
L7A	-0.519

Study 5
Target: Ras GTPase-activating protein-binding protein 1, C-terminal RGG region (G3BP1, Homo sapiens, UniProt Q13283)
Chain of UniProt Q13283 (whole entry, looked up): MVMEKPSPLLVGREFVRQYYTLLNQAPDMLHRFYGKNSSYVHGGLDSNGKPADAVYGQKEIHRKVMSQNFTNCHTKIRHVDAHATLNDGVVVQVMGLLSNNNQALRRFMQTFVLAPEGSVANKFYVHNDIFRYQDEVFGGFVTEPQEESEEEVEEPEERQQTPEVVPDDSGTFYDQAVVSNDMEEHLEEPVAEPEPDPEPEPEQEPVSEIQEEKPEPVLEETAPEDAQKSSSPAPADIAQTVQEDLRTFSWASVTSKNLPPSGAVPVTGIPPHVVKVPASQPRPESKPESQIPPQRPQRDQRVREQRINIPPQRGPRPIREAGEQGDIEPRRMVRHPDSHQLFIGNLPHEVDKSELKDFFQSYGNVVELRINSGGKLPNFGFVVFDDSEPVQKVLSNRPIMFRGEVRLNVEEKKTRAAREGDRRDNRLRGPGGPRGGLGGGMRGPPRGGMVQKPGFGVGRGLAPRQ
Technique: RNA Bind-n-Seq
Form: RNA
Matrix: in vitro
Concentration: 1 µM
Notes: whole 134-nt RNA, ends assumed
Together with: 150 mM KCl
Reference: input library
Reading: higher = stronger binding
Constant ends, left off below: GGGAGUUCUACAGUCCGACGAUC … UGGAAUUCUCGGGUGUCAAGG
Sequence	log2 enrichment
AAGUCCUGUGCUACACAUCGUAUGUACCGAAUCGGGGUUUGGGGAGGGGAAAGGGGAAAGUAUUAUGUUACGCCGUUCGGAUCUGCACUU	2.37
UUCCUCAAGUCCUGUGCUACACAUCGUAUGUACCGAAUCGGGAGGAGGAGGAAAGUAUUAUGUUACGCCGUUCGGAUCUGCACUUCCAGC	-1.26
GUCCUGUGCUACACAUCGUAUGUACCGAAUCGGGAAAAAAAGGGAAAAAAAGGGUGGGAAAGUAUUAUGUUACGCCGUUCGGAUCUGCAC	0.167
CUCAAGUCCUGUGCUACACAUCGUAUGUACCGAAUCGGCCGGGCCGGGGCCGGAAAGUAUUAUGUUACGCCGUUCGGAUCUGCACUUCCA	-0.838
ACCAUGCAGGUGGGCAUCUUUGGGAAGUGGGGCAAGGGGGGGAUAGGGAGGGGGGUAACAAUUUGGGAACAGGUGGUCCCAGGUCGUUUC	2.23
AGUCCUGUGCUACACAUCGUAUGUACCGAAUCAAACCCCCAAACCCCCAAAUUUAAAAAAGUAUUAUGUUACGCCGUUCGGAUCUGCACU	-0.992
CUCAAGUCCUGUGCUACACAUCGUAUGUACCGAAUCGGUGGAAAAAGGAAAGGAAAGUAUUAUGUUACGCCGUUCGGAUCUGCACUUCCA	-1.09
UGGCCCUGGUGGCAUGCGGGGAGGAAGAGGUGGCCUCAUGGACCGUGGUGGUCCCGGUGGAAUGUUCAGAGGUGGCCGUGGUGGAGACAG	2.15
UCAAGUCCUGUGCUACACAUCGUAUGUACCGAAUCGGUUUGGUUUGGGGUUUGGAAAGUAUUAUGUUACGCCGUUCGGAUCUGCACUUCC	-0.992
UGGGAGGUGGAUUUUGUUUAUUUUUUUAGCUCAUUUCCAGGGGUGGGAAUUUUUUGUUAAUAUGUGUCAUGAAUAAAGUUGUUUUUGAAA	2.79
UGGGAGGUGGAAUUUGUUUAUUUUUUUAGCUCAUUUCCAGGGGUGGGAAUUUUUUUUUAAUAUGUGUCAUGAAUAAAGUUGUUUUUGAAA	2.8
GCAGGAAGUAAAAACAAAUGGAAAUGCUUCGGAUAGUGGCAGGGGUGGGGGUUGCUAAGUAAAGGGUGGGAUGGGAGUGGGUAAAGAGUU	1.82
CACAGACAACACGCACCCACACAGACACAGAGGGAAGGGGUUGGGAUGGGGUCAGGGUGCACAGCAGGGCGGGGUAGGACCCCAGCCCCU	0.0123
CAAGUCCUGUGCUACACAUCGUAUGUACCGAAUCGGGUGGGUUUGGGAAAAAGGGAAAGUAUUAUGUUACGCCGUUCGGAUCUGCACUUC	1.44

A few entries again (study 1):
Sequence	E-score
GCTCTGGA	-0.0442
GAATTTGC	0.164
ACCGAACC	-0.18
ATCATAGG	0.152
GTGCACGA	-0.102
CTTATTGC	0.0897
ACCGAGGG	-0.362
AGAAAGCA	0.0472
CCCTCCGC	-0.311
AGTTCATA	0.275
AAGACCAG	-0.192
